Assay results pooled from the literature.
Each numbered part is a random draw from the data of one study; scales do not carry over between parts. Values joined by “and” are separate records of one study, mostly repeats; a detail may differ.
Sequence of UniProt Q99640 (whole entry, looked up): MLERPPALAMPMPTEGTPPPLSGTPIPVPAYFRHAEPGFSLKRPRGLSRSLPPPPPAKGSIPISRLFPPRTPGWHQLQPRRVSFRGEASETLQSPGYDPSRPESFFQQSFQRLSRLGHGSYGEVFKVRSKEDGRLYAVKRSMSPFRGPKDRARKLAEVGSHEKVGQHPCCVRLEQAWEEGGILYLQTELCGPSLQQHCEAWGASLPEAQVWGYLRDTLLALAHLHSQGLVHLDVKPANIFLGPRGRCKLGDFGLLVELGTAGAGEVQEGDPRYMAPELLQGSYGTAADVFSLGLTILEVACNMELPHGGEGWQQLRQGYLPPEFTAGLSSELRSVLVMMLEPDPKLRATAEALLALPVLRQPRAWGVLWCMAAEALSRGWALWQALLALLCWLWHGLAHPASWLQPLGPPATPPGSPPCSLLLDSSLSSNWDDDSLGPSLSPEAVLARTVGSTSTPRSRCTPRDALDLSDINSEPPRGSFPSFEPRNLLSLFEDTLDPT
Sequence of UniProt Q52WX2 (whole entry, looked up): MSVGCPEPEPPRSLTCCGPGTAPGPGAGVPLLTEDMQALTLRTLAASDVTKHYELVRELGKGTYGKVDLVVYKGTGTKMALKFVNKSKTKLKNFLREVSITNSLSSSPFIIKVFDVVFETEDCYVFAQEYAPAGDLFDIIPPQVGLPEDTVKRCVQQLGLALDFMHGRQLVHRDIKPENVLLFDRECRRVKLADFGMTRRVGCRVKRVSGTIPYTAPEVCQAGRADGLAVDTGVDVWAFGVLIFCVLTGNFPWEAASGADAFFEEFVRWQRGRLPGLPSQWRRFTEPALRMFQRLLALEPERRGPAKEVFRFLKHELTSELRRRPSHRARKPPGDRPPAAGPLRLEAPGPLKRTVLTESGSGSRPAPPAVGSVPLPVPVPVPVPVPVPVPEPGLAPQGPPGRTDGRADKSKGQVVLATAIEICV
Sequence of UniProt Q96SW2 (whole entry, looked up): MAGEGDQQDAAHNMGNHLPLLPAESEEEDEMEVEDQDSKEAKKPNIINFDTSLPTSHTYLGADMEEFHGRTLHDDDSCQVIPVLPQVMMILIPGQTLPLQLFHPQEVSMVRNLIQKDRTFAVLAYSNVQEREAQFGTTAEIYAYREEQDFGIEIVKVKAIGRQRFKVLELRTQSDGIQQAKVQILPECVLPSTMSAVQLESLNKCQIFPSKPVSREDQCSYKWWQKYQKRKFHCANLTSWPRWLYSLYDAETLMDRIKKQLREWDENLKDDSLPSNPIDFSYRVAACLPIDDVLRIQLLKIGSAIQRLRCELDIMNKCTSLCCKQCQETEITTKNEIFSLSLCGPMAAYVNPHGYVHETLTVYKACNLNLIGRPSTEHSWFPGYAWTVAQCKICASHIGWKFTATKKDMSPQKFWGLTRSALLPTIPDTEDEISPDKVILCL
Sequence of UniProt Q9Y6M4 (whole entry, looked up): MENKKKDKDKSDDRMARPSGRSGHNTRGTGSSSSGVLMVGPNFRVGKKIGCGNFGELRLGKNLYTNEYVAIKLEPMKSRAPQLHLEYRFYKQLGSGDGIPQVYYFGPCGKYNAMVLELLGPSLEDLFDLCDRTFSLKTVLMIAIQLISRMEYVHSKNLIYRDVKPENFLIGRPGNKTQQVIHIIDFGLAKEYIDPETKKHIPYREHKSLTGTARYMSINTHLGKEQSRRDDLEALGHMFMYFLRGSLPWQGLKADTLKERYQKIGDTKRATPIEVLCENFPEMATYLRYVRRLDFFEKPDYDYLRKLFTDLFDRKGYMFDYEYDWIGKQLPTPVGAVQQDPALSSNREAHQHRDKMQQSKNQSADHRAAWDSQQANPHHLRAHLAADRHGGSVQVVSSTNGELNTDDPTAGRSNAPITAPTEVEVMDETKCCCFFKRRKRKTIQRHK
Sequence of UniProt Q8WU08 (whole entry, looked up): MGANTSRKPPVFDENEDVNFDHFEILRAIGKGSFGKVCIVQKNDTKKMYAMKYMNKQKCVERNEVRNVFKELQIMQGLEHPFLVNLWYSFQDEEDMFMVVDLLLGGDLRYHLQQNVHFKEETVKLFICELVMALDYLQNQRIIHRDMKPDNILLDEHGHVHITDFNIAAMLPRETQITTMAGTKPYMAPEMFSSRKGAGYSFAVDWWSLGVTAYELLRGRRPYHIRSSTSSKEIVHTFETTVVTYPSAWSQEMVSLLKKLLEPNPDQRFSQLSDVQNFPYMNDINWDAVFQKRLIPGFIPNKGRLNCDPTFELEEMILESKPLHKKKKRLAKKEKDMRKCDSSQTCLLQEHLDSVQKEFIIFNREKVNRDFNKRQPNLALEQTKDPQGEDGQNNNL
Sequence of UniProt Q9UQB9 (whole entry, looked up): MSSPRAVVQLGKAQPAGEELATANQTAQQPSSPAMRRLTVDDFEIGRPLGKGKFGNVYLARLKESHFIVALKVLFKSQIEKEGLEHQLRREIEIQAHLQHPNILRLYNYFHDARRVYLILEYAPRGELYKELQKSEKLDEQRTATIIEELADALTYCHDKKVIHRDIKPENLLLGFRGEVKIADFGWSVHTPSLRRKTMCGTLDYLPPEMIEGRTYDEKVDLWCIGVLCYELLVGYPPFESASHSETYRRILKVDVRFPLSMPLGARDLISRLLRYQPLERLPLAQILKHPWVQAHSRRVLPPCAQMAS

Series 1
Compound: CNc1ncc2cc(-c3cc(OC)cc(OC)c3Cl)c(=O)n(CCc3ccc(NC(=O)C(C#N)=CC(C)(C)N4CCOCC4)cc3)c2n1
For CK1; 1 µM, mean: inhibition read -1%.
It gave 13% for inhibition (CSNK1G3 (Homo sapiens, UniProt Q9Y6M4); kinase activity; 1 µM).
The inhibition was 0% (RPS6KA4 (Homo sapiens, UniProt O75676); kinase activity; 1 µM).
The inhibition was -1% (JAK3 (Homo sapiens, UniProt P52333); kinase activity; 0.1 µM).
5'-AMP-activated protein kinase catalytic subunit alpha-1, with beta1, gamma1 (PRKAA1, Homo sapiens, UniProt Q13131); kinase activity; 1 µM — inhibition: -1%.
MAPK11 (Homo sapiens, UniProt Q15759); kinase activity; 1 µM — inhibition: 3%.
For PRKCQ (Homo sapiens, UniProt Q04759); kinase activity; 0.1 µM: inhibition read 3%.
It gave 1% for inhibition (FLT3 (Homo sapiens, UniProt P36888); kinase activity; 0.1 µM).
For MAPKAPK3 (Homo sapiens, UniProt Q16644); kinase activity; 0.1 µM: inhibition read -1%.
For ABL1 (Homo sapiens, UniProt P00519); kinase activity; 0.1 µM: inhibition read 1%.

Series 2 — read-out: thermal unfolding; method: differential scanning fluorimetry; concentration: 5.5 µM; direction: higher = more unfolded
Compound: C[C@@H]1CN(c2ccc(-c3cc(C(=O)NCCOCCOCCOCCOCCOCCOCCNC(=O)/C=C/c4[nH]cc(C(=O)N[C@@H](CC(N)=O)c5ccc(F)c(Cl)c5)c4-c4ccc(Cl)cc4F)ccc3F)cc2NC(=O)c2ccc(F)cc2C(F)(F)F)C[C@H](C)N1C
DCAF1: DDB1- and CUL4-associated factor 1 (DCAF1, Homo sapiens, UniProt Q9Y4B6)
Sequence of UniProt Q9Y4B6 (whole entry, looked up): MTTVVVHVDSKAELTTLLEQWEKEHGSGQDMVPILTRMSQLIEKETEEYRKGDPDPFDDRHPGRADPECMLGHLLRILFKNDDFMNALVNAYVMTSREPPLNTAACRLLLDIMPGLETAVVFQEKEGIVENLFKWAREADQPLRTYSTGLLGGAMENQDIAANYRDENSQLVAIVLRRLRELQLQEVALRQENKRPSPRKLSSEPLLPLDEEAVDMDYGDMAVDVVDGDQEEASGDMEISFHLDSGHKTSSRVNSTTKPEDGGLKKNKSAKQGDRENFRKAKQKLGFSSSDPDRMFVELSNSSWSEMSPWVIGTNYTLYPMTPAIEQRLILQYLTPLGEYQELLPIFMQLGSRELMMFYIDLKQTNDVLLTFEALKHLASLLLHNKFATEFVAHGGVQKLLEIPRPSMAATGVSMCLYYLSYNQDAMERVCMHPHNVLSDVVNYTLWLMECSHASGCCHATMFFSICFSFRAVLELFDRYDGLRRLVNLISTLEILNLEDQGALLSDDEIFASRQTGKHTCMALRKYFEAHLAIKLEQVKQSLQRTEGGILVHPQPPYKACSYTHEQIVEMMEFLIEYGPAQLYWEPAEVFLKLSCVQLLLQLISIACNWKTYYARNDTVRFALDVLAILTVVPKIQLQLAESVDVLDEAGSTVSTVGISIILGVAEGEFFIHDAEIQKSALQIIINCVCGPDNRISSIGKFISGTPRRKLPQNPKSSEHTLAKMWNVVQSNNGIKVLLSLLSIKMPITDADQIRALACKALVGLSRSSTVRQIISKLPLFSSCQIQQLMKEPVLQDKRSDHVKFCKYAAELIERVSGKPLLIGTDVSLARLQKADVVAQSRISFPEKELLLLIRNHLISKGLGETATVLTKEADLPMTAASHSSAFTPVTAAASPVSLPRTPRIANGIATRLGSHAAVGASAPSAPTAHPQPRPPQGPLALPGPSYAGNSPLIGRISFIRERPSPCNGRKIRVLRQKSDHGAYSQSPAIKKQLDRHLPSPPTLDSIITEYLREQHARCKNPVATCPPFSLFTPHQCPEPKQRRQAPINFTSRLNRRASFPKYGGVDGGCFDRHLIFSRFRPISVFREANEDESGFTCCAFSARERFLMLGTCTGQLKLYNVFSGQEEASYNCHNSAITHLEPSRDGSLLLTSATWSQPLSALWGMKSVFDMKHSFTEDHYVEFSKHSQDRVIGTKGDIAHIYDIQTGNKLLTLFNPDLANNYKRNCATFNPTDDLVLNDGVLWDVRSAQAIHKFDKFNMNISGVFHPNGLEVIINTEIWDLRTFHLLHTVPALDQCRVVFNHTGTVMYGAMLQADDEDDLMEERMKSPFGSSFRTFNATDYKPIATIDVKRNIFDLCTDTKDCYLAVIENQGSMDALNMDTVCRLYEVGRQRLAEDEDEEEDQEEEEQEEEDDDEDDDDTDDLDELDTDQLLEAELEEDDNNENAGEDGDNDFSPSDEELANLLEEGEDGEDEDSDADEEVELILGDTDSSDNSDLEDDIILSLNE
WDR5: WD repeat-containing protein 5 (WDR5, Homo sapiens, UniProt P61964)
For DCAF1; 51 °C: “SYPRO Orange fluorescence” read 19000 a.u.
DCAF1; 93.21 °C — “SYPRO Orange fluorescence”: 30000 a.u.
For DCAF1; 88.61 °C: “SYPRO Orange fluorescence” read 33500 a.u.
For DCAF1; 31.4 °C: “SYPRO Orange fluorescence” read 8830 a.u.
It gave 16800 a.u. for “SYPRO Orange fluorescence” (WDR5; 53.81 °C).
For WDR5; 27.2 °C: “SYPRO Orange fluorescence” read 13400 a.u.
It gave 34800 a.u. for “SYPRO Orange fluorescence” (DCAF1; 86.21 °C).
The “SYPRO Orange fluorescence” was 14900 a.u. (DCAF1; 46 °C).
DCAF1; 32.6 °C — “SYPRO Orange fluorescence”: 9160 a.u.
It gave 16600 a.u. for “SYPRO Orange fluorescence” (WDR5; 55.41 °C).
DCAF1; 93.41 °C — “SYPRO Orange fluorescence”: 29800 a.u.

Series 3
Structure (SMILES): O=C(O)C1(O)Oc2ccccc2N(Cc2ccccc2)C1=O (stereo not drawn)
For Avena fatua; fresh weight; 150 g ai/ha, pre-emergence treatment: inhibition read 100%.
It gave 45.5% and 47.9% and 41% for inhibition (Amaranthus retroflexus; fresh weight; 150 g ai/ha, post-emergence treatment).
It gave 14.6% for inhibition (Arabidopsis thaliana; root length; Col-0, seedlings; 25 µg/mL).
The inhibition was 9.5% (Arabidopsis thaliana; hypocotyl length; Col-0; 12.5 µg/mL, 7 days, seed germination, dark).
The inhibition was 19.2% (Arabidopsis thaliana; root length; Col-0, seedlings; 50 µg/mL; reference: water control).
The inhibition was 16.3% (Arabidopsis thaliana; hypocotyl length; Col-0, seedlings; 12.5 µg/mL).
For Arabidopsis thaliana; root length; Col-0, seedlings; 50 µg/mL: inhibition read 19.2%.
The inhibition was 3.91% (Arabidopsis thaliana; root length; Col-0, seedlings; 6.25 µg/mL; reference: water control).
The inhibition was 6.8% and 8% and 7.1% (Glycine max; fresh weight; soil surface spray, 150 g ai/ha, 21 days, pre-emergence crop safety).
It gave 14.6% for inhibition (Arabidopsis thaliana; root length; Col-0, seedlings; 25 µg/mL; reference: water control).
For Arabidopsis thaliana; hypocotyl length; Col-0; 25.0 µg/mL, 7 days, seed germination, dark: inhibition read 22.5%.
It gave 36.4% for inhibition (Arabidopsis thaliana; hypocotyl length; Col-0, seedlings; 100 µg/mL).
It gave 31.2% for inhibition (Arabidopsis thaliana; hypocotyl length; Col-0; 100 µg/mL, 7 days, seed germination, dark).

Series 4 — SMILES: O=C(Nc1ccccc1)Nc1cccc(Oc2ccc3nccn3n2)c1; concentration: 1 µM
For DAPK3 (Homo sapiens, UniProt O43293); binding: remaining binding read 100%.
The remaining binding was 100% (PLK3 (Homo sapiens, UniProt Q9H4B4); binding).
For MAK (Homo sapiens, UniProt P20794); binding: remaining binding read 73%.
INSRR (Homo sapiens, UniProt P14616); binding — remaining binding: 100%.
For EPHA2 (Homo sapiens, UniProt P29317); binding, competition with immobilised ligand: remaining binding read 70%.
It gave 67% for remaining binding (EGFR (Homo sapiens, UniProt P00533); binding, competition with immobilised ligand).
FLT3 (Homo sapiens, UniProt P36888, K663Q); binding — remaining binding: 100%.
For EPHA8 (Homo sapiens, UniProt P29322); binding, competition with immobilised ligand: remaining binding read 100%.
It gave 80% for remaining binding (KIT (Homo sapiens, UniProt P10721, T670I/V559D); binding).
ABL1 (Homo sapiens, UniProt P00519, M351T); binding — remaining binding: 100%.
ULK1 (Homo sapiens, UniProt O75385); binding — remaining binding: 100%.
The remaining binding was 100% (GRK7 (Homo sapiens, UniProt Q8WTQ7); binding).
The remaining binding was 0.4% (CSF1R (Homo sapiens, UniProt P07333); binding, competition with immobilised ligand).
The remaining binding was 100% (FLT3 (Homo sapiens, UniProt P36888, D835H); binding).
For SBK1 (Homo sapiens, UniProt Q52WX2); binding, competition with immobilised ligand: remaining binding read 100%.
It gave 98% for remaining binding (PIM2 (Homo sapiens, UniProt Q9P1W9); binding).
ULK3 (Homo sapiens, UniProt Q6PHR2); cell-free binding — remaining binding: 100%.

Series 5 — cell line: U-87 MG; concentration: concentration not given; reference: DMSO
Structure (SMILES): CCN1/C(=C/C=C2\CCCC(/C=C/C3=[N+](CC)c4ccccc4C3(C)C)=C2NCCCCCCCCN2CCC(Nc3nc4ccccc4n3Cc3ccc(F)cc3)CC2)C(C)(C)c2ccccc21
For refers to: EID3 mRNA: “log2 fold change” read 2.7.
It gave -1.09 for “log2 fold change” (refers to: AMD1 mRNA).
It gave 0.966 for “log2 fold change” (refers to: BACH1 mRNA).
The “log2 fold change” was 1.41 (refers to: H2AC18 mRNA).
refers to: TP53I3 mRNA — “log2 fold change”: -0.957.
refers to: MAP1LC3B mRNA — “log2 fold change”: 1.85.
The “log2 fold change” was 3.08 (refers to: ATF3 mRNA).
refers to: SDCBP mRNA — “log2 fold change”: 0.876.
The “log2 fold change” was 1.11 (refers to: PHF1 mRNA).
refers to: PARPBP mRNA — “log2 fold change”: -1.28.
It gave 3.4 for “log2 fold change” (refers to: SLCO5A1 mRNA).
For refers to: DRAM1 mRNA: “log2 fold change” read 1.31.

Series 6 — concentration: 1 µM
Compound: CCC1(c2cccc(-c3cn(C)nc3C)c2)C2=C(Nc3n[nH]cc31)C(F)C(C)(C)CC2=O (single isomer, unassigned)
MAP2K2 (Homo sapiens, UniProt P36507); binding, competition with immobilised ligand — remaining binding: 91%.
CSNK1D (Homo sapiens, UniProt P48730); binding, competition with immobilised ligand — remaining binding: 100%.
For MAPK12 (Homo sapiens, UniProt P53778); kinase binding, KINOMEscan; reference: DMSO control: remaining binding read 100%.
It gave 100% for remaining binding (CDK14 (Homo sapiens, UniProt O94921); kinase binding, KINOMEscan; reference: DMSO control).
For Aurora kinase C (AURKC, Homo sapiens, UniProt Q9UQB9); kinase binding, KINOMEscan; reference: DMSO control: remaining binding read 100%.
It gave 100% for remaining binding (PAK3 (Homo sapiens, UniProt O75914); kinase binding, KINOMEscan; reference: DMSO control).
The remaining binding was 99% (PKMYT1 (Homo sapiens, UniProt Q99640); binding, competition with immobilised ligand).
IKBKB (Homo sapiens, UniProt O14920); kinase binding, KINOMEscan; reference: DMSO control — remaining binding: 91%.
NIM1K (Homo sapiens, UniProt Q8IY84); binding, competition with immobilised ligand — remaining binding: 95%.
It gave 87% for remaining binding (MAP4K4 (Homo sapiens, UniProt O95819); kinase binding, KINOMEscan; reference: DMSO control).
SBK1 (Homo sapiens, UniProt Q52WX2); binding, competition with immobilised ligand — remaining binding: 100%.
The remaining binding was 100% (CSNK1G3 (Homo sapiens, UniProt Q9Y6M4); kinase binding, KINOMEscan; reference: DMSO control).
Tyrosine-protein kinase ABL1, phosphorylated (ABL1, Homo sapiens, UniProt P00519, M351T); binding, competition with immobilised ligand — remaining binding: 100%.
FGFR3 (Homo sapiens, UniProt P22607, G697C); binding, competition with immobilised ligand — remaining binding: 100%.
The remaining binding was 100% (STK32A (Homo sapiens, UniProt Q8WU08); binding, competition with immobilised ligand).
For PIK3CA (Homo sapiens, UniProt P42336, H1047Y); binding, competition with immobilised ligand: remaining binding read 100%.
The remaining binding was 100% (NEK5 (Homo sapiens, UniProt Q6P3R8); binding, competition with immobilised ligand).
MAPK13 (Homo sapiens, UniProt O15264); binding, competition with immobilised ligand — remaining binding: 99%.
ANKK1 (Homo sapiens, UniProt Q8NFD2); kinase binding, KINOMEscan; reference: DMSO control — remaining binding: 100%.
It gave 82% for remaining binding (IRAK3 (Homo sapiens, UniProt Q9Y616); binding, competition with immobilised ligand).

Other studies, line by line
PKMYT1: Membrane-associated tyrosine- and threonine-specific cdc2-inhibitory kinase (PKMYT1, Homo sapiens, UniProt Q99640)
For `Cc1ccc(O)c(C)c1-c1cnc2[nH]c(-c3cnc(N4CCC(CN5CCN(c6cc7c(cc6F)n(C6CCC(=O)NC6=O)c(=O)n7C)CC5)CC4)nc3)cc2c1C#N` (stereo not drawn), the fraction unbound was 0.005 (ultracentrifugation; mouse plasma; 2 µM, 4 h, pH 7.4).
`Cc1ccc(O)c(C)c1-c1cnc2[nH]c(-c3cnc(N4CCC(CCN5CCN(c6ccc(N7CCC(=O)NC7=O)cc6F)CC5)CC4)nc3)cc2c1C#N` gave an inhibition of -1.08% and -2.61% (PKMYT1; binding, HTRF; 0.15 nM).
For `Cc1ccc(O)c(C)c1-c1cnc2[nH]c(-c3cnc(N4CCC5(CC4)CC(N4CCN(c6ccc(N[C@@H]7CCC(=O)NC7=O)cc6F)CC4)CO5)nc3)cc2c1C#N` (single isomer, unassigned), the inhibition was 10.5% and 11.8% (Protein cereblon (CRBN, Homo sapiens, UniProt Q96SW2); binding; 1111.11 nM).
For `Cc1ccc(O)c(C)c1-c1cnc2[nH]c(-c3cnc(N4CCC(CCN5CCN(c6cc7c(cc6F)c(N6CCC(=O)NC6=O)nn7C)CC5)CC4)nc3)cc2c1C#N`, the inhibition was 22.5% and 20.9% (PKMYT1; binding, HTRF; 1.37 nM).
